Measurements gathered from unrelated publications.
Numbered parts are unrelated; each lists some results of a single study.

Sample 1 — technique: universal PBM; form: double-stranded DNA, one strand shown; sample: in vitro; concentration: 600 nM; reading: higher = stronger binding
Target: Sal-like protein 4, full length isoform A (SALL4, Homo sapiens, UniProt Q9UJQ4, residues 1-1053)
Chain of UniProt Q9UJQ4 (whole entry, looked up): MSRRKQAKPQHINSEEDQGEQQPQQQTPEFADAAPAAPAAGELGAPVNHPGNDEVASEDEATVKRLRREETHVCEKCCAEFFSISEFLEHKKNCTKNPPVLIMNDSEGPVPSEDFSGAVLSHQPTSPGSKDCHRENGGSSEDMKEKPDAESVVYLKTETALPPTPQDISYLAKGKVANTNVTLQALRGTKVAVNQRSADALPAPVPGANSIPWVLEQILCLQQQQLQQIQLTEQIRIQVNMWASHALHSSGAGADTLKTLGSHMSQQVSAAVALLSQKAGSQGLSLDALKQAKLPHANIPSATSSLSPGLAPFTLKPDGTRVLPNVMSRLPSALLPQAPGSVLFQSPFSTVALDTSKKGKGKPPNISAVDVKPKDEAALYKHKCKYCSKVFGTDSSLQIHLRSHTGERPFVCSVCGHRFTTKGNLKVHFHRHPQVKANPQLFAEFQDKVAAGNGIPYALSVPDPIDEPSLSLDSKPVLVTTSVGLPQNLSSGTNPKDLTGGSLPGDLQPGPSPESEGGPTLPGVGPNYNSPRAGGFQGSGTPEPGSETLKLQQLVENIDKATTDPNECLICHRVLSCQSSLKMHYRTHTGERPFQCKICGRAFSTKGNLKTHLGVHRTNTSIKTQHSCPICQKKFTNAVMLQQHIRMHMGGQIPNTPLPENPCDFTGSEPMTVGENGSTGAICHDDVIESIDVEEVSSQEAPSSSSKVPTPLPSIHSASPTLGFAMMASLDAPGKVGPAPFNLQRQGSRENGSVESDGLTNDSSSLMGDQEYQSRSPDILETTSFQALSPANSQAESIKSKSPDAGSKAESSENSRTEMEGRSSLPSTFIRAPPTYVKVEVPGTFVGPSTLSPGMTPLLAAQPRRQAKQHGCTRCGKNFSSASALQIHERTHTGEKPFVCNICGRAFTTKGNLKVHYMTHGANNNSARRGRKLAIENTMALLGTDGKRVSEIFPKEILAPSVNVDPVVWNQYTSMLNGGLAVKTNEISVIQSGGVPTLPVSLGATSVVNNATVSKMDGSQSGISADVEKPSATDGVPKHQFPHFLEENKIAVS
Setting: 8-mer, flanks averaged, mean of replicates
| Oligonucleotide | E-score |
| --- | --- |
| TAACTTGA | 0.209 |
| TACGAGGA | -0.0265 |
| CTCTCCCA | -0.0731 |
| GAACGGTA | -0.0434 |
| CTCAGCGA | 0.0448 |
| CTAGATCC | -0.174 |

Sample 2 — technique: protein-binding microarray; form: double-stranded DNA, one strand shown; sample: in vitro; concentration: 0.8 µM; setting: whole 60-bp probe, no competitor; reading: higher = stronger binding; shared flanks, not repeated: … GTCTTGATTCGCTTGACGCTGCTG
Target: Centromere-binding protein 1, full length, N-terminal tag (CBF1, Saccharomyces cerevisiae, UniProt P17106, residues 1-351)
Chain of UniProt P17106 (whole entry, looked up): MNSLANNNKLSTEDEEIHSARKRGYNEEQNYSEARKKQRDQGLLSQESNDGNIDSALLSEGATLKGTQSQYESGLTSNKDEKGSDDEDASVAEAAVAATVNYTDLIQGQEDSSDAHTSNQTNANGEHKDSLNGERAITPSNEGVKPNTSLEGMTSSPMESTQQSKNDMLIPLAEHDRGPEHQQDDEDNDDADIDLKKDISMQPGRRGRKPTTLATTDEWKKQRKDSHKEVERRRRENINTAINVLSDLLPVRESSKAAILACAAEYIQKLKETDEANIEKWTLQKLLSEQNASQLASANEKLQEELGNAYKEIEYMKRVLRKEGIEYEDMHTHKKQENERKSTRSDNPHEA
| Oligonucleotide | fluorescence intensity |
| --- | --- |
| GAACGAAAAATAAATCATATGAGATTTTAGTACTAG | 531 a.u. |
| CTAGTTTTGTGCATTAACGTGGCATATAATTAGTTC | 645 a.u. |
| CTATGCTATAACTCGGTGGTGATGACCTCAGTGTTC | 524 a.u. |
| CTATCAACATCTTGTGACCTGATGATTTTCCTCTTC | 947 a.u. |
| CTAAAGAGAGGATGCCACGTTTTCCCGACGGCTTTC | 524 a.u. |
| CTATGTTGGAAATTACAGGAGATGAGTTGTAAATTC | 522 a.u. |

Sample 3 — technique: protein-binding microarray; form: double-stranded DNA, one strand shown; sample: in vitro; concentration: 940 nM top; setting: 60-bp whole probe; added: salmon DNA 0.4 mg/ml; relative to: random background probes; reading: higher = stronger binding; shared flanks, not repeated: GCCTAGCACT … GTCTTGATTCGCTTGACGCTGCTG
Target: Interferon regulatory factor 5, full length, phosphomimetic (IRF5, Homo sapiens, UniProt Q13568-2, residues 1-514, S451D/S453D/S456D/S462D)
| Oligonucleotide | fitted relative affinity |
| --- | --- |
| TAGATTTCAGTATCAATTAGTGCTAG | 1.76 z-score |
| TAGGTTTCGGGTATCGGTTTGTGCTA | 11.1 z-score |
| ACGGACTGGGTATCGGGACGTGCTAG | 0.663 z-score |
| TAGAACTGGGTTATCGATTAGTGCTA | 0.117 z-score |
| TAGGTCTCGGTTTCGGCTAGTGCTAG | 7.13 z-score |
| TAGGTATCGTGTTTCGGTTAGTGCTA | 5.23 z-score |

Further values, each from its own experiment
| Substance | target | test | test system | setting | scale | quantity | result |
| --- | --- | --- | --- | --- | --- | --- | --- |
| PhoQ, residues 284 288 289 292 302 303 GLASVI | PhoP, residues 12 14 15 18 19 VQGLL (Escherichia coli, UniProt P23836) | Sort-seq, item: YFP reporter | E. coli | PhoQ-PhoP variant library, added: 10 µM Mg2+ | relative to: high Mg2+ state, higher = stronger signaling | fold induction | 11.5 |

A few entries again (sample 3):
| Oligonucleotide | fitted relative affinity |
| --- | --- |
| TAGATTTCAGTATCAATTAGTGCTAG | 1.76 z-score |
